Published values collected from several papers.
A part holds a random share of what one study measured. Changes are numbered by the printed parent chain.

Series 1
Target: CCND2, cyclin fold, Cln2 fusion (human)
Technique: yeast growth competition, sequencing
Matrix: yeast
Notes: weak parent motif
Baseline: not given
Reading: higher = stronger binding
Starting sequence: viral docking peptide; KGVKRKLFAEDSS
For `R5L`, “normalised enrichment score” read -0.278.
For `F8I`, “normalised enrichment score” read 0.0729.
`L7W` — result for “normalised enrichment score”: -0.577.
For `S12C`, “normalised enrichment score” read 0.312.
`G2C` — result for “normalised enrichment score”: 0.312.
`R5S` — result for “normalised enrichment score”: -0.137.
`E10T` — result for “normalised enrichment score”: -0.388.
Under “normalised enrichment score”, `L7R` is recorded as 0.15.
For `E10H`, “normalised enrichment score” read -0.216.
Under “normalised enrichment score”, `A9E` is recorded as 0.542.
For `D11K`, “normalised enrichment score” read 0.098.
`V3T`: “normalised enrichment score” 0.331.
For `K6P`, “normalised enrichment score” read 0.129.
For `F8Q`, “normalised enrichment score” read 0.291.
Under “normalised enrichment score”, `K6M` is recorded as 0.228.
Under “normalised enrichment score”, `E10P` is recorded as 0.278.
Under “normalised enrichment score”, `K4S` is recorded as 0.302.
Under “normalised enrichment score”, `K6R` is recorded as 0.565.
Under “normalised enrichment score”, `R5D` is recorded as 0.0514.
Under “normalised enrichment score”, `D11T` is recorded as -0.238.
Under “normalised enrichment score”, `V3A` is recorded as 0.426.
`D11Y`: “normalised enrichment score” 0.406.
Under “normalised enrichment score”, `K4H` is recorded as -0.039.
`K4N`: “normalised enrichment score” 0.025.
`D11P` — result for “normalised enrichment score”: -0.0788.

Series 2
Target: FOXO3, forkhead domain (mouse, UniProt Q9WVH4, residues 31-263)
UniProt Q9WVH4, sequence (31-263, looked up): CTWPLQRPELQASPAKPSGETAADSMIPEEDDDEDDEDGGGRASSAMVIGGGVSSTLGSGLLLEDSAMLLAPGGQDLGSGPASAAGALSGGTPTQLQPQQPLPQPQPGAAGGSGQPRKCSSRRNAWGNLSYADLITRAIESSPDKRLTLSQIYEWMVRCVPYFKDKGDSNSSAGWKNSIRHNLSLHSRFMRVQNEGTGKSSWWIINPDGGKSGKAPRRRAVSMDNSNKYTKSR
Technique: protein-binding microarray
Molecule type: hairpin DNA
Matrix: in vitro
Concentration: not given
Notes: whole hairpin DNA, median over replicate spots
Baseline: not given
Reading: higher = stronger binding
For `GAGGCCATGTAACCAACGCCTCCTGGCGTTGGTTACATGGCCTCACACTC (5mC at 17)`, the median fluorescence was 4120 a.u.
For `GAGGCCATGTAACCAAAGCCTCCTGGCTTTGGTTACATGGCCTCACACTC`, the median fluorescence was 3640 a.u.
With `GAGGCCATGTCAACAACGCCTCCTGGCGTTGTTGACATGGCCTCACACTC` the median fluorescence was 5430 a.u.
`GAGGCCATGTCGCCAACGCCTCCTGGCGTTGGCGACATGGCCTCACACTC (5mC at 11)` gave a median fluorescence of 4490 a.u.
`GAGGCCGTGTAACCAACGCCTCCTGGCGTTGGTTACACGGCCTCACACTC` has a median fluorescence of 4500 a.u.
`GAGGCCATCGAACCAACGCCTCCTGGCGTTGGTTCGATGGCCTCACACTC (5mC at 9 35)` gave a median fluorescence of 4310 a.u.
With `GAGGCCATGTACGCAACGCCTCCTGGCGTTGCGTACATGGCCTCACACTC (5mC at 12)` the median fluorescence was 4310 a.u.
`GAGGCCATGCAAACAATGCCTCCTGGCATTGTTTGCATGGCCTCACACTC` has a median fluorescence of 4430 a.u.

Series 3
Target: Interferon regulatory factor 3, full length, phosphomimetic (IRF3, Homo sapiens, UniProt Q14653, residues 1-427, S386D/S396D/S398D/S402D/T404D/S405D)
Technique: protein-binding microarray
Molecule type: double-stranded DNA, one strand shown
Matrix: in vitro
Concentration: 2540 nM top
Notes: 60-bp whole probe
Together with: salmon DNA 0.4 mg/ml
Baseline: random background probes
Reading: higher = stronger binding
Constant ends, left off below: GCCTAGCAC … GTGCTAGGTCTTGATTCGCTTGACGCTGCTG
Residues (chain): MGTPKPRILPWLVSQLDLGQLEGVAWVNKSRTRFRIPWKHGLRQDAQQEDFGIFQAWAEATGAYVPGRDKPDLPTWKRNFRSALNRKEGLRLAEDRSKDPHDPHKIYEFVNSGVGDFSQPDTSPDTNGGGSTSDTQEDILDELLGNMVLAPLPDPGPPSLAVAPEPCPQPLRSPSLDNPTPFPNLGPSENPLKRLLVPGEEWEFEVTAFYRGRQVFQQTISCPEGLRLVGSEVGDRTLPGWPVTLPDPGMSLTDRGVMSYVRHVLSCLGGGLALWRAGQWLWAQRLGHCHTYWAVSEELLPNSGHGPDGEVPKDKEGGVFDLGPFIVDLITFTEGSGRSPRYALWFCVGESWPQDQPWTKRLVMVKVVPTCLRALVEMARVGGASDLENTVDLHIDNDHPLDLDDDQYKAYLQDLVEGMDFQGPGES
For `GACGGACTGGGACTGTGGAC`, “fitted relative affinity” read -0.73 z-score.
`GACGATTTCAGACTGGAGAT` — result for “fitted relative affinity”: 0.986 z-score.
For `TTAGGTCTCCTTTTCCTTGA`, “fitted relative affinity” read 4.76 z-score.
`AGTAATGACCTTCTCAGGAG`: “fitted relative affinity” 0.629 z-score.
For `GACGGCATCGGTATCGGGAC`, “fitted relative affinity” read 0.494 z-score.
`TCATTACCGCATATCGGACT` — result for “fitted relative affinity”: 0.606 z-score.
`TTAGTTTTCCTTTCCCTTTA` — result for “fitted relative affinity”: 9.44 z-score.
`TGAGATATCAGTTTCGATTA` — result for “fitted relative affinity”: 4.7 z-score.

Series 4
Target: NFIL3, bZIP domain (human)
Technique: DHFR protein complementation
Matrix: yeast
Notes: single substitutions, most at no-binding floor
Baseline: wild-type JUN-FOS pair
Reading: higher = stronger binding
Starting sequence: JUN, bZIP domain (human); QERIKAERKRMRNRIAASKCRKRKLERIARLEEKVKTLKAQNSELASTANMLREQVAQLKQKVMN; partner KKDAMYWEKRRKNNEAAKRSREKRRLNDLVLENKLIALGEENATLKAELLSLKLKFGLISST
For `N42W`, the binding fitness was -1.44 natural log.
`K36S` has a binding fitness of -1.15 natural log.
For `R53V`, the binding fitness was -1.52 natural log.
For `S47T`, the binding fitness was -1.35 natural log.
For `L38V`, the binding fitness was -1.45 natural log.
`R53S` gave a binding fitness of -1.59 natural log.
The binding fitness of `L31W` is reported as -1.28 natural log.
`N42K` gave a binding fitness of -1.46 natural log.

Further values, each from its own experiment
`WAKRRPATF` — result for binding: “active” (HLA class I histocompatibility antigen, B alpha chain, allele B*08:02 (Homo sapiens, UniProt P01889); peptide-MHC binding; peptide; concentration not given).

Some of these lines once more (series 2):
For `GAGGCCATGTAACCAACGCCTCCTGGCGTTGGTTACATGGCCTCACACTC (5mC at 17)`, the median fluorescence was 4120 a.u.
For `GAGGCCATGTAACCAAAGCCTCCTGGCTTTGGTTACATGGCCTCACACTC`, the median fluorescence was 3640 a.u.
With `GAGGCCATGTCAACAACGCCTCCTGGCGTTGTTGACATGGCCTCACACTC` the median fluorescence was 5430 a.u.
`GAGGCCATGTCGCCAACGCCTCCTGGCGTTGGCGACATGGCCTCACACTC (5mC at 11)` gave a median fluorescence of 4490 a.u.
`GAGGCCGTGTAACCAACGCCTCCTGGCGTTGGTTACACGGCCTCACACTC` has a median fluorescence of 4500 a.u.
`GAGGCCATCGAACCAACGCCTCCTGGCGTTGGTTCGATGGCCTCACACTC (5mC at 9 35)` gave a median fluorescence of 4310 a.u.
With `GAGGCCATGTACGCAACGCCTCCTGGCGTTGCGTACATGGCCTCACACTC (5mC at 12)` the median fluorescence was 4310 a.u.
`GAGGCCATGCAAACAATGCCTCCTGGCATTGTTTGCATGGCCTCACACTC` has a median fluorescence of 4430 a.u.
